Assay results collected from several papers.
Numbered parts are unrelated; each lists some results of a single study.

Set 1 — method: RNA Bind-n-Seq; molecule type: RNA; medium: in vitro; concentration: 365 nM; reference: no-protein control; reading: higher = stronger binding; endpoint: RBNS enrichment (R)
Target: RNA binding protein fox-1 homolog 2, RRM domain, GST-SBP tag (RBFOX2, Homo sapiens, UniProt O43251-10, residues 100-194)
Setting: natural RNA segment, single round, ends assumed
All sequences stand within: GGGAGUUCUACAGUCCGACGAUC … UGGAAUUCUCGGGUGCCAA
Target sequence (chain): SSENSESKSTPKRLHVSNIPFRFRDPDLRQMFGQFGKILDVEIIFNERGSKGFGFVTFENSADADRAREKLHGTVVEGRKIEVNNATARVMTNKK
GUUUUUGUUUUCUCUUCCAAGGGCCGUCCCGUUGUGUUAGGAAGGGUGAGUGGCUGGUUCCAGGGUGGGCCGGUGCCAGCUCCGGGGUGGACUGAACAGCGGCGGCUGUC: 1.07
UAUGUUUUAAAAAACAAAUUUGAGAAUACAUUUAAUCAUAGGGAUAUAGAUAUAAGCACCUCUCUAAAGAAUCUUUAGUUUCCGACGUUGAAUUAUAGACCAGUUUGAGU: 0.506
GCAAGAUAGAUACUAUAUUAAACUGUACUGUUAUUUAAGAUGUAAUAAAGCAGUUUGACAUGAGGGACUCUGGUGUGAUGGUUAUUUGAGGGUCAUCUUCAGUGUGUGGG: 0.442
CAAGCACAAGUUCUCUAUAUCACUUGUUUUUUGUUGUUGUUGUUGUUGUCGUCGUUGUUUUGAGACGGAGUCUUGCUCAGGUGCCCCGGAGUGCAGUGGUGCAAUCUCAG: 3.64
GAACAUUAAGCUAUUUAACCCUCAAAGUUGACCAUGCUUCCAGGACCACAGCACACCCAAGGACAUGUGCCUGUCCGGGAGGGCAGCAUGCCGACUUGAUCUUUGAGCCC: 0.398
GCUCUGCAAGUAGUUUAGUAGGAAUGAAGUGGAAGUCCAGGCUUGGAUUGCCUAACUACACUGCUAAAAAUAUUUGUAAUCCUUAAUAAUUAAACUUUGGAUUUGUUAAA: 0.968
UCUAGAAACCAGCAGCUACUGGCUCAAAUUCAGGUUCUGGCGUCAAAUAGCGACAUUUCCAGUUUCUCUUAAAAACCGUGUUUGGUUUCAGUUGGGAUAGGCUUGUUUUG: 0.328

Set 2 — method: protein-binding microarray; molecule type: double-stranded DNA, one strand shown; medium: in vitro; concentration: 2200 nM top; setting: 60-bp whole probe; with: salmon DNA 0.4 mg/ml; reference: random background probes; reading: higher = stronger binding; endpoint: fitted relative affinity; all sequences stand within: GCCTAGCAC … GTCTTGATTCGCTTGACGCTGCTG
Target: Interferon regulatory factor 7, full length, phosphomimetic (IRF7, Homo sapiens, UniProt Q92985, residues 1-503, S471D/S472D/S475D/S476D/S477D/S483D/S484D/S487D)
UniProt Q92985, sequence (whole entry, unmodified, looked up): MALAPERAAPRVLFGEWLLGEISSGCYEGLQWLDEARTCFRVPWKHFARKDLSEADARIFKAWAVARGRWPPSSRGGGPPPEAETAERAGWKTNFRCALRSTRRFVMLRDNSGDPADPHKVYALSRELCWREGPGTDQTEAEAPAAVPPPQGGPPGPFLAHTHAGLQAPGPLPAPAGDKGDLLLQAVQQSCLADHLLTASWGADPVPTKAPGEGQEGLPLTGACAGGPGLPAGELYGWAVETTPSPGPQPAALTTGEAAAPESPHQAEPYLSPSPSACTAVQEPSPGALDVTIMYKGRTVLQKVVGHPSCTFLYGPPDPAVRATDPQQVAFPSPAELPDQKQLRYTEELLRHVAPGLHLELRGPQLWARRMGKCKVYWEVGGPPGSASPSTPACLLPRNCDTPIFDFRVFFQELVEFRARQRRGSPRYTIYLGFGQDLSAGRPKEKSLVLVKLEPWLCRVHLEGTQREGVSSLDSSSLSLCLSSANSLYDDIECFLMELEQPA
TTAGGTTTCGGATTTCGGTTAGTGCTA: 7.62 z-score
TTAGGACTGGACTATCTGTTAGTGCTA: -0.292 z-score
CGGATGATCTCTCTGGGCAAGTGCTAG: -0.411 z-score
TTAGGTATCCTTTGCCTTTAGTGCTAG: 0.793 z-score
TTAGGTATCGGTATCAGTTAGTGCTAG: 0.818 z-score
GACGAATTCGGGTATCGAGACGTGCTA: 0.463 z-score
GACTAACTGGGGACTGGAGACGTGCTA: -0.194 z-score
TTAGGTATCGCCACTGGGTTAGTGCTA: -0.0274 z-score
GACGGTTTCGGTCTCCGGACGTGCTAG: 8.16 z-score

Set 3 — method: RNA Bind-n-Seq; molecule type: RNA; medium: in vitro; concentration: 1 µM; setting: whole 134-nt RNA, ends assumed; with: 150 mM KCl; reference: input library; reading: higher = stronger binding; endpoint: log2 enrichment
Target: Ras GTPase-activating protein-binding protein 1, C-terminal RGG region (G3BP1, Homo sapiens, UniProt Q13283)
UniProt Q13283, sequence (whole entry, looked up): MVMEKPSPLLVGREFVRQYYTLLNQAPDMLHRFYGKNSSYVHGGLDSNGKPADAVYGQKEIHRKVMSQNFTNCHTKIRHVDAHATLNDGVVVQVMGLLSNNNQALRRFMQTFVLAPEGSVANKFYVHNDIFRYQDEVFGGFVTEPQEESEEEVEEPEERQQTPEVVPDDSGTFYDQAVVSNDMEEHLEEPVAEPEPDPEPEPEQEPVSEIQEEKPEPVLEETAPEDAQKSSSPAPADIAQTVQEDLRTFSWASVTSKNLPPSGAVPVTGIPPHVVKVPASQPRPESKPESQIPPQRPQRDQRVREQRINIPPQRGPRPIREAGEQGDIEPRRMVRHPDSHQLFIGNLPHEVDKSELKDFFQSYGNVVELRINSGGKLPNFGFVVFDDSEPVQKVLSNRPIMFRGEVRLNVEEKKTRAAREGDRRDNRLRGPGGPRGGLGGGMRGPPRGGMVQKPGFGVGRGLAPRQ
All sequences stand within: GGGAGUUCUACAGUCCGACGAUC … UGGAAUUCUCGGGUGUCAAGG
CCUGUGCUACACAUCGUAUGUACCGAAUCGGGCCCCCCGGGCCCCCCGGGCCCCCCGGGGAAAGUAUUAUGUUACGCCGUUCGGAUCUGC: -2.1
UCCUGUGCUACACAUCGUAUGUACCGAAUCGGGGAAAAAGGGGAAAAAGGGGAAAGGGGAAAGUAUUAUGUUACGCCGUUCGGAUCUGCA: 2.32
ACCAUGCAGGUGGGCAUAAAUGGGAAGUGGGGCAAGGGGGGGAUAGGGAGGGGGGUAACACUUUGGGAACAGGUGGUCCCAGGUCGUUUC: -1.07
CAAGUCCUGUGCUACACAUCGUAUGUACCGAAUCGGGCCGGGGCCGGGGCCGGGGAAAGUAUUAUGUUACGCCGUUCGGAUCUGCACUUC: -1.04
UGGGAGGUGGAUUUUGUUUAUUUUUUUAGCUCAUUUCCAGGGGUGGGAAUUCUUUUUUAAUAUGUGUCAUGAAUAAAGUUGUUUUUGAAA: 4.07
UGGCCCUGGUGGCGUGCGGGGAGGAAGAGGUGGCCUCAUGGAUCGUGGUGGUCCCGGUGGAAUGUUCAGAGGUGGCCGUGGUGGAGACAG: 2.11

Further values, each from its own experiment
PhoQ, residues 284 288 289 292 302 303 SLSVQF
fold induction (PhoP, residues 12 14 15 18 19 QWHVF (Escherichia coli, UniProt P23836); Sort-seq, measured: YFP reporter; E. coli; PhoQ-PhoP variant library, with: 10 µM Mg2+; reference: high Mg2+ state, higher = stronger signaling): 3.28
